Assay results pooled from the literature.
Each numbered part is a random draw from the data of one study; scales do not carry over between parts.

Set 1
Target: Histone acetyltransferase KAT6A, winged helix 1, GST fusion (KAT6A, Homo sapiens, UniProt Q92794, residues 1-85)
Technique: protein binding microarray
Molecule type: double-stranded DNA, one strand shown
Sample: in vitro
Concentration: not given
Setting: 8-mer, flanks averaged, mean of 2 arrays, mostly near background
Baseline: not given
Direction: higher = stronger binding
Target sequence (chain): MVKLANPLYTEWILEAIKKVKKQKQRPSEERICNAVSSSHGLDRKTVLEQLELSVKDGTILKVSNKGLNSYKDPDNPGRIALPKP
The E-score of `ATTGCGTA` is reported as 0.162.
For `TCTGACAA`, the E-score was -0.197.
`CGCATTGA` gave an E-score of 0.252.
`ATTTGGGC` has an E-score of -0.287.
For `GGAAACCC`, the E-score was 0.0117.
`ACCCAGAC` gave an E-score of -0.0406.
The E-score of `AAAGGAGT` is reported as -0.0438.
`GTGTAGCA` has an E-score of -0.0306.
`CCCAGCAA` gave an E-score of -0.0577.
With `ATAGCCGG` the E-score was 0.23.
The E-score of `AAATGGTT` is reported as -0.059.
With `CATAGGCC` the E-score was 0.0753.
`ACTTAACA` gave an E-score of -0.162.
The E-score of `AACCCTAC` is reported as -0.202.
For `GACATCTA`, the E-score was -0.132.
With `GCGCGGAA` the E-score was 0.392.
`GCGTCCAA` has an E-score of 0.0311.

Set 2
Target: RING finger protein unkempt homolog, zinc fingers 1-6, GST-SBP tag (UNK, Homo sapiens, UniProt Q9C0B0, residues 30-357)
Sequence of UniProt Q9C0B0 (30-357, looked up): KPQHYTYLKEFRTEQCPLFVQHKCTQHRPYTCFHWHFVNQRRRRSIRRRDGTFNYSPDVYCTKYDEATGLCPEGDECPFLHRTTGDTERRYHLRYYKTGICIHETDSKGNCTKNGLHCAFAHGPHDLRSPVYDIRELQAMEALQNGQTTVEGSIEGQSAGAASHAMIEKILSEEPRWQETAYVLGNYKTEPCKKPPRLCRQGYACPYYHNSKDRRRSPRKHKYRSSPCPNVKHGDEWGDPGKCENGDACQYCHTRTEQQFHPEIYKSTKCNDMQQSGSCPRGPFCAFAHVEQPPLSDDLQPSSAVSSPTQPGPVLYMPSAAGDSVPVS
Technique: RNA Bind-n-Seq
Molecule type: RNA
Sample: in vitro
Concentration: not given
Setting: RNA with constant flanks, human-mouse chimeric sites, ends assumed
Baseline: input RNA pool
Direction: higher = stronger binding
With `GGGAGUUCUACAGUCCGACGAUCUUACCCGAGAACGAGGAUGAGCUGGAGAGCACCAACAGGCGCUACACCAAGAGGGACUGUAGCACUUUCCUCAGAACUAGCGAGACGGGCAUCGUGGACCAGGUCAUGGUCACUCUCAACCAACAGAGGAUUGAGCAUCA` the bound/input enrichment was 0.23 ratio.
With `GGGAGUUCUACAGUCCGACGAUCGCAAGAGAUGAUGAGGCGGCAGCUGUUGCCCUUUCCUCUCUCGUUCAUGCUUUGGAUGAGUUAAACAUGGUCGCCAUCGUCCGAUAUGCUUAUGACAAAAGAUCUAAUCCUCAAGUUGGUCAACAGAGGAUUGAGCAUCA` the bound/input enrichment was 0.178 ratio.
`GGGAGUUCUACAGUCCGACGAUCCAGCGCCGAGGCCGCGGUUUCCCCCUGGGCCUCCCCAGCAGCAGCCAUGGGCAUCAAAUUUUUAGAAGUUAUUAAACCAUUCUGUGCAGUUCUACCAGAAAUUCAGAAACCGGAAAGGAACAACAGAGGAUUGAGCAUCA` has a bound/input enrichment of 6.89 ratio.
The bound/input enrichment of `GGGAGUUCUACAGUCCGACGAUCUUCAAAGGCUGUGUUAUCUGUGUCAUUUCAUAAGUAACUCUGGGGGAGGGAAAUUCUGUUCUUUUGUUUAAUUUUCCCCCAAAUGAAGCCAAAGUGUGUGUUGAAGAAGGAAGAAUGAAUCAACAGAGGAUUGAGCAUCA` is reported as 0.164 ratio.
With `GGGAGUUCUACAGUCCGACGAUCGGCCUGGGACCGUCCUGGGCUAGUACAAAUAGCGGCAGUGGAGGCUCAGAGGAAAGUUUUGUUAGUGGAGGCAGUGGUAGAGGCCGUAUGUACGCUCCCUUUACUCGAUAGAUGUGUUCUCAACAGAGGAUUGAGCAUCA` the bound/input enrichment was 0.394 ratio.
`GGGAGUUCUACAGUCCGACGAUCGAGCGUCUUGCCCGCACCGGGAUCAUAGUGACCACUAGUGAGGCUGUCCUCCUACAGCUGGUGGCUGACAAAGACCACCCGAAGUUCAAGGAAAUUCAGAAUCUAAUUAAGGCGAGUGCCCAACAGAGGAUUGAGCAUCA` gave a bound/input enrichment of 0.115 ratio.
`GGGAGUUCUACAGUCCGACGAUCGGGGAGAAACCUUACGAAUGCGUUCAGUGUGGGAAAUCCUACAGUCAGAGCUCAAACCUCUUCAGACAUCAGAGACGACACAAUGCAGAAAAACUUUUGAAUGUUGUGAAGGUUUAAGAACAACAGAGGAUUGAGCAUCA` has a bound/input enrichment of 0.247 ratio.
For `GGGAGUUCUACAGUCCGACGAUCUUCAAAGAAAAGGGCAGCUGUGUCAUUACUUGGGAGACUCUGGGGGAGGGAAAUUCUAACUAGUUUGUUAAUUUUCCCCCAAAUGAAGCCAAAGUGUGUGUUGAAGAACUGAGAAAAAAUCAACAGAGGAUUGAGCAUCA`, the bound/input enrichment was 1.05 ratio.
The bound/input enrichment of `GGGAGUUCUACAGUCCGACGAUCUAAGUCCUGUGCCAGCACUUCGCUCAUAAAGUUUUAAAUUCAAGAAAAAUAGUGUUUGUUUCCUGAUUAUUGUAUCCAAUACUUUGCCUAGUAUGUAACUCACUCUUACUGAUAAUAAAACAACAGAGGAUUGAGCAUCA` is reported as 5.09 ratio.
`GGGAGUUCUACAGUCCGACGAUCUAAAUUAGGGCUGCCGUUUUCUGUUUCGCCCUGAGCUGCGGAAAGCCAGAAGAUUUUAUCUAGUUUGUACAAGGCUGCUGGUGUUCCCUCUUUUUUUCCACGAGGGUGUUUUUGGCUGCACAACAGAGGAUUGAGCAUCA` gave a bound/input enrichment of 0.523 ratio.
`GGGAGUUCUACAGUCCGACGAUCCUGGCCUGGCCCUCCCCAGGGGCCUCCUUUCGUAUAGUCACUGCUUCUGCAUCAGAUACUUUCAGCUCCAAGUCCUGGCAGGGUGGGGCACCCAUUUCAGGCAGAAGGUUUUGGUACCCUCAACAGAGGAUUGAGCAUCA` has a bound/input enrichment of 0.277 ratio.

Set 3
Target: RNA binding protein fox-1 homolog 2, RRM domain, GST-SBP tag (RBFOX2, Homo sapiens, UniProt O43251-10, residues 100-194)
Technique: RNA Bind-n-Seq
Molecule type: RNA
Sample: in vitro
Concentration: 365 nM
Setting: natural RNA segment, single round, ends assumed
Baseline: no-protein control
Direction: higher = stronger binding
Construct (chain): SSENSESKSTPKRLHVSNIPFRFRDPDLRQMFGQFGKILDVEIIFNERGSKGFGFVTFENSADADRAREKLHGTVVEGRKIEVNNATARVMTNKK
Under “RBNS enrichment (R)”, `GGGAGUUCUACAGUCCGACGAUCUCCCAAGGGCUGGCUGCUUCUGAGGACACAACUGGGACAUGGUUGAGUCAGUAGACUAUUUAGAGACUCAUGUAACUUGGGGUAUGGGCAUGCCUUUAUGGGAGCAGCCAUGGAAUUCUCGGGUGCCAA` is recorded as 0.583.
Under “RBNS enrichment (R)”, `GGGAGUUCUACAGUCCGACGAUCGUCUCUGUCUUAUUGCAGCUCCAGGCCUGACGUUUUACGGUUUUGUUUUUUACUGGUUUGUGUUUAUAUUUUCGGGGAUACUUAAUAAAUCUAUUGCUGUCAGAUACCCUUGGAAUUCUCGGGUGCCAA` is recorded as 0.758.
`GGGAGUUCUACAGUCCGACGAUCAGAAAUUUAAAAUAGCAUUAGAGCAAGUUGCUUGUCAUGGCUUGAAGAGCUUAACUUUGUCUUUUGGGUGAGUAGCUAUAGGUUUGAGAGAGGCUGGCUACUCCUAGUUCUGGAAUUCUCGGGUGCCAA` — result for “RBNS enrichment (R)”: 1.12.
`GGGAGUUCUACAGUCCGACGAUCGCUCUGAGCAGUGGCAAUAGAAUGUCAACGGAUUGCAAUCAGAUGGCUCAACUCUGUGUCUCCUGAGCACCAGCAGCCAAGCCUGUUCAUGAUGAUGUGCACACAGUCAUUGGAAUUCUCGGGUGCCAA` — result for “RBNS enrichment (R)”: 0.405.
`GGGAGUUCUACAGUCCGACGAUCGGAAGAAAAGUAGUUCUGGUAUGUUUCAUUGAUCCCCAGAUACCUUCCAAUCUGGACAUGAUGGGGCUGAUUCCAGAUGGUUUUUCUGAAAUUUCAUUAAGGUAGGUCAGUGGAAUUCUCGGGUGCCAA` — result for “RBNS enrichment (R)”: 0.343.
For `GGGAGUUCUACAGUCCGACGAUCUUGUAUCGCUCACGAUGCACUGUGGUGUGCUCGGGUAUCUUUCCUCACUGGAGAGAGCAAGCACAGGAAGCUGGCUGCAGUGCCUUCCUCAUGAAGGAUCUACCACAACCUGGAAUUCUCGGGUGCCAA`, “RBNS enrichment (R)” read 0.26.
For `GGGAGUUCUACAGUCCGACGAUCAGGCUGGUCUCAAACUUCUGACCUCAAGUGAUCUGCCCACCUUGGCCUCCCAAAGUGCUGGGAUUACAGGUGUAAGCCACUGCGCCCGGCCUUUUUAACUUUAAACAUGUUGGAAUUCUCGGGUGCCAA`, “RBNS enrichment (R)” read 0.281.
`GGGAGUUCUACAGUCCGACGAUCUUUUCUGGCAACAUUUAAUGAUCCACAAAUGUAUAUAUAGAAAAUCUUCCUCCCCUUUCUCCCUUUCACUCCUUCCCCUGCGGACACAUUCUAGUUCCUGCAGGGCUUAUUGGAAUUCUCGGGUGCCAA`: “RBNS enrichment (R)” 0.365.
`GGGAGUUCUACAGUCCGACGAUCAACACAAGGCUCCAAGACCUAGGCUCAUGGACGAGAUGGGAAGGCACAGGGAGAAGGGAUAACCCUACACCCAGACCCCAGGCUGGACAUGCUGACUGUCCUCUCCCCUCUGGAAUUCUCGGGUGCCAA`: “RBNS enrichment (R)” 0.365.
`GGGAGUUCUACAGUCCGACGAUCAGGAUCAAUAUUUUGCUUUUUAACAAGGAUAUUUAUGUAAUAAGAAACUUUGCCUUAGGUAGGUGUUGGCCAGAAAAGUCCAGAUUUCUCUGUGACCUCACCCUGGCCUCUGGAAUUCUCGGGUGCCAA` — result for “RBNS enrichment (R)”: 0.401.
`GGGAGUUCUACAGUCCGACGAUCCUGGAUUUCUCCACUGAAAACCUACUUGAGGUUUCUGGUCUGAAGGCUUAAGAGUCACAUCUUAGCACUUCCGCUCUCAGGCCUCCUCCUCCAUCACAGAUGUCUGGAUGUGGAAUUCUCGGGUGCCAA`: “RBNS enrichment (R)” 0.32.
`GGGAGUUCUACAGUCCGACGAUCCAUUUUCUACCUGGCCCUAUCGCUGAGAGCCCCUCCCCAUGGCUCACUGAGGAGCACUCAGCCAGCAGUUCUCUAUCCUUAUCAGCCACAGAAUGCUUCUCACUGCCCGAUGGAAUUCUCGGGUGCCAA`: “RBNS enrichment (R)” 0.937.

Set 4
Target: TAR DNA-binding protein 43, full length, His tag (TARDBP, Homo sapiens, UniProt Q13148, residues 1-414)
Technique: RNA Bind-n-Seq
Molecule type: RNA
Sample: in vitro
Concentration: 20 nM
Setting: 6-mer, flanks averaged, single round
With: 150 mM LiCl
Baseline: input library
Direction: higher = stronger binding
For `GCGCGA`, “6-mer enrichment (R)” read 1.
For `GGGAUG`, “6-mer enrichment (R)” read 1.26.
Under “6-mer enrichment (R)”, `AUUCCU` is recorded as 0.879.
Under “6-mer enrichment (R)”, `ACGCGA` is recorded as 0.835.
Under “6-mer enrichment (R)”, `AAACAU` is recorded as 0.821.
Under “6-mer enrichment (R)”, `AAACUC` is recorded as 0.861.
`UCAUGG`: “6-mer enrichment (R)” 0.922.
`UGCUAA`: “6-mer enrichment (R)” 0.905.
Under “6-mer enrichment (R)”, `CUUACC` is recorded as 0.911.
`CUGAGG` — result for “6-mer enrichment (R)”: 0.938.
`CUUACA` — result for “6-mer enrichment (R)”: 0.868.
`UGUUAU`: “6-mer enrichment (R)” 1.25.
Under “6-mer enrichment (R)”, `GCGGGC` is recorded as 1.09.
`ACGUUC`: “6-mer enrichment (R)” 0.835.
Under “6-mer enrichment (R)”, `UGAAAC` is recorded as 0.84.
Under “6-mer enrichment (R)”, `GGUUAG` is recorded as 1.09.
Under “6-mer enrichment (R)”, `UCAGCC` is recorded as 0.876.
`GGCGUU`: “6-mer enrichment (R)” 1.02.
`GCAGGG`: “6-mer enrichment (R)” 1.19.
`ACGCUG`: “6-mer enrichment (R)” 0.862.
For `GACAGA`, “6-mer enrichment (R)” read 0.871.
`UAGCGA`: “6-mer enrichment (R)” 0.902.
For `CUUAGG`, “6-mer enrichment (R)” read 0.872.
For `GUCGCC`, “6-mer enrichment (R)” read 0.972.
For `UCCCCU`, “6-mer enrichment (R)” read 1.22.

Set 5
Target: Sal-like protein 4, full length isoform A (SALL4, Homo sapiens, UniProt Q9UJQ4, residues 1-1053)
Sequence of UniProt Q9UJQ4 (whole entry, looked up): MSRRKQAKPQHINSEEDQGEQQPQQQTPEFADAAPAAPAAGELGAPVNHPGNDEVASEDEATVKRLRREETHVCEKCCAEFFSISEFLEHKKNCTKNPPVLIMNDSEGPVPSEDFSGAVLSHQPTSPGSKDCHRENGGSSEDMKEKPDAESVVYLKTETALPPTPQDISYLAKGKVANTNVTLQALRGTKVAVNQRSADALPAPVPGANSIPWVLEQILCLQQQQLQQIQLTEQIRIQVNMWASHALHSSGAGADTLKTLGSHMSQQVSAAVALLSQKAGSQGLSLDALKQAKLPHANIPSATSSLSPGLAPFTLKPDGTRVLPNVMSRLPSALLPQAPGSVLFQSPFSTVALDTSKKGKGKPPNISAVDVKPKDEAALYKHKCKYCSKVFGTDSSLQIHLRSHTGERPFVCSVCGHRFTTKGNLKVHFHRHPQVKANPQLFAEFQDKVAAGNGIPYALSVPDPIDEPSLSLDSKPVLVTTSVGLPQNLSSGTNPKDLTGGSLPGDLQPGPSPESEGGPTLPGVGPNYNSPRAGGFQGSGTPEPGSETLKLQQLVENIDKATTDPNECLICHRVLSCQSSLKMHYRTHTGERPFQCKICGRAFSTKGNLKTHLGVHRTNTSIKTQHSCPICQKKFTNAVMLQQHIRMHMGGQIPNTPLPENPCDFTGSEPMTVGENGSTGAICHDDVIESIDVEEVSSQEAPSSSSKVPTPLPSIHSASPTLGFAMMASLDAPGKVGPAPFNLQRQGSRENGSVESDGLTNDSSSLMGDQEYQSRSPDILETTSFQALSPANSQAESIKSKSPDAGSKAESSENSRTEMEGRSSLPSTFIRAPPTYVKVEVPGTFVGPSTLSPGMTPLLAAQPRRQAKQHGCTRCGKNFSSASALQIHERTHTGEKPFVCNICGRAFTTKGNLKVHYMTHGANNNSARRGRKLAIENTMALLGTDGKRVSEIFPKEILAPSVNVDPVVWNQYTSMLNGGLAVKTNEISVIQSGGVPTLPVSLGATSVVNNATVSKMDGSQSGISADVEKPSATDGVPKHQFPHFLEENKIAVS
Technique: universal PBM
Molecule type: double-stranded DNA, one strand shown
Sample: in vitro
Concentration: 600 nM
Setting: 8-mer, flanks averaged, mean of replicates
Direction: higher = stronger binding
The E-score of `ATCCACGA` is reported as 0.0575.
For `ACCTTACT`, the E-score was 0.229.
For `CTGACGTA`, the E-score was -0.111.
`AGAGCTCA` has an E-score of -0.176.
`ATAATTCA` gave an E-score of 0.404.
`AACTGCTA` has an E-score of 0.0624.
For `GCACGTAC`, the E-score was -0.213.
`CTCGGAGC` has an E-score of -0.249.
With `AGGAGCTC` the E-score was -0.121.
`CGAGGCTA` has an E-score of -0.0945.
`GCTATCCC` has an E-score of -0.212.
`CTGTTTCC` gave an E-score of 0.113.
`TACACAGA` has an E-score of 0.17.
`AAGGTATT` has an E-score of 0.181.
`ATTCACAA` gave an E-score of 0.24.
With `AACGGTAG` the E-score was -0.0745.
The E-score of `GCGTGGGA` is reported as -0.154.
The E-score of `CAGCAATA` is reported as 0.215.
For `GAGCTCCC`, the E-score was -0.24.
With `ACTGCATG` the E-score was -0.0328.
`AAATCCGT` gave an E-score of 0.123.
